Literature values, collected from citations in different studies.
Lines come from different studies, so protocols differ. Values after ≈ are worked out from the molar mass of the structure shown.
Chain of UniProt Q9NWZ3 (whole entry, looked up): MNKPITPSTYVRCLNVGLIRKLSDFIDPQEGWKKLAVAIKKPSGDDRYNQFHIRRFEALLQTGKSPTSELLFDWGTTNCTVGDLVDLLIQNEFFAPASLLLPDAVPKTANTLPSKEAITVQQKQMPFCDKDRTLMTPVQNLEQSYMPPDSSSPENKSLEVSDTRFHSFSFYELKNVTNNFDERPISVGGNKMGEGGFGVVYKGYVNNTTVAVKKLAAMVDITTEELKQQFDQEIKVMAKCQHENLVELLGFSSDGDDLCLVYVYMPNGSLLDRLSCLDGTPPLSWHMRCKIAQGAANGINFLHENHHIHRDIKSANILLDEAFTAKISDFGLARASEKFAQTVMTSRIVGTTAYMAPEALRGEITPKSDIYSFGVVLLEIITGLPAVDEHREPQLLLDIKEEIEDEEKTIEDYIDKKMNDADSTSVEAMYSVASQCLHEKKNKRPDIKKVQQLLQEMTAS

| Structure (SMILES) | target or system | test | test system | setting | scale | quantity | value |
| --- | --- | --- | --- | --- | --- | --- | --- |
| CCCCCCCCCCCCC/C=C/[C@@H](O)[C@H](CO)NC(=O)CCCCCNc1ccc([N+](=O)[O-])c2nonc12 | inositol phosphorylceramide synthase, membrane-bound |  |  | with: ceramide substrate |  | Km | 0.003 mM |
| Cc1cc(NC(=O)c2cccc(NC(=O)/C=C/CN(C)C)c2)ccc1Nc1nccc(-c2cccnc2)n1 | JNK2 |  |  | 1 µM | relative to: control | remaining activity | 0% |
| Cc1cccc(-c2[nH]c(CNc3ccccc3F)nc2-c2ccc3ncnn3c2)n1 | OAT3 | transport activity, inhibitor |  | up to 100 µM |  | inhibition | no inhibition |
| CC1(C)S[C@@H]2[C@H](NC(=O)[C@H](N)c3ccccc3)C(=O)N2[C@H]1C(=O)O | Klebsiella pneumoniae |  | clinical isolate RKI-No_461/16 |  |  | MIC | 16 mg/L (≈ 45.8 µM) |
| CCCC(CCC)C(=O)O | histone deacetylase | enzyme activity, inhibitor | mouse embryonic stem cells | unbound medium concentration |  | EC10 | 34 µM |
| Clc1ccc(C(c2c[nH]c3ccccc23)c2c[nH]c3ccccc23)cc1 | NR4A1 (Nur77) | inverse agonist or antagonist |  |  |  | active concentration | 20 µM |
| CCC(CC)C(=O)O | histone deacetylase | enzyme activity, inhibitor | mouse embryonic stem cells | unbound medium concentration |  | EC10 | 931 µM |
| O=C1NC(=O)c2c1c1c3ccccc3[nH]c1n1cncc21 | CSNK1D | kinase activity, inhibitor |  | concentration not given |  | inhibition | 85% |
| Fc1ccc(-c2c3cccc(C(F)(F)F)c3nn2Cc2ccc(F)cc2Cl)cc1 | ABCA1 |  |  |  |  | EC50 | 540 nM |
| Nc1ncn([C@@H]2O[C@H](CO)[C@@H](O)[C@H]2O)c(=O)n1 | cytidine deaminase (human) | substrate |  | concentration not given, 37 °C |  | Vmax | 38 U/mg |
| O=C(C1CCCCC1)N1CC(=O)N2CCc3ccccc3[C@H]2C1 | TRPM8 human |  |  |  |  | EC50 | ~20000 nM |
| [Br-].[K+] | anion exchanger, human | substrate | neutrophils |  |  | Km | 9.4 mM |
| C=C1C(=O)O[C@@H]2C[C@@]3(C)CCCC(=C)[C@@H]3C[C@H]12 | NR4A1 (Nur77) | inverse agonist or antagonist |  |  |  | active concentration | 21.5 µM |
| Nc1cc(C(F)(F)F)c(-c2nc(N3CCOCC3)nc(N3CCOCC3)n2)cn1 | IRAK4 (Homo sapiens, UniProt Q9NWZ3) | enzyme activity |  | 10 µM | relative to: untreated | remaining activity | 100% |
| CC(C)(O/N=C(\C(=O)N[C@@H]1C(=O)N2C(C(=O)[O-])=C(C[N+]3(CCNC(=O)c4ccc(O)c(O)c4Cl)CCCC3)CS[C@H]12)c1csc(N)n1)C(=O)O | L1 | hydrolysis by enzyme, substrate |  |  |  | kcat | 12 s⁻¹ |
| COc1ccccc1Oc1cccc(CN2CCC(NC(=O)C3CC(=O)Nc4ccccc43)CC2)c1 (stereo not drawn) | human CCR8 F254A mutant (TM6) | IP accumulation, agonist |  |  |  | EC50 | 64 nM |
| N[C@@H](CCC(=O)O)C(=O)O | kainate receptor | binding |  | historical reference data |  | Hill coefficient | 0.8 |
| COc1cccc(-c2cc(=O)c3ccccc3o2)c1N | CSNK1G1 | kinase activity, inhibitor |  | 0.5 µM |  | inhibition | 17% |
| CCCC(C)(C)C(=O)O | histone deacetylase | enzyme activity, inhibitor | mouse embryonic stem cells | unbound medium concentration |  | EC10 | 707 µM |
| O=C(Nc1nc2ccccc2[nH]1)c1ccccc1 | amyloid precursor protein |  |  | 2 µM, PubChem AID 1276 |  | response | 214% |
| Nc1nc(Nc2ccc(S(N)(=O)=O)cc2)n(C(=S)Nc2c(F)cccc2F)n1 | CSNK1E | kinase activity, inhibitor |  | 0.5 µM |  | inhibition | 8% |
| CCCCC(CC)C(=O)O (stereo not drawn) | HDAC | enzyme activity, inhibitor |  | day 10, unbound medium concentration |  | EC10 | 119 µM |
| Oc1c2ccccc2c2c3c(cccc13)N=N2 | CSNK1D | kinase activity, inhibitor |  | 0.5 µM |  | inhibition | 87% |

| Structure (SMILES) | target or system | test | test system | setting | scale | quantity | value |
| --- | --- | --- | --- | --- | --- | --- | --- |
| COc1ccccc1Oc1cccc(CN2CCC(NC(=O)C(CCN3CCCC3)c3ccccc3)CC2)c1 (stereo not drawn) | human CCR8 W194A mutant (TM5) | IP accumulation, agonist |  |  |  | EC50 | 0.22 nM |
| C[C@H]1COCCN1c1nc(-c2cnc(N)cc2C(F)F)nc(N2CCOCC2)n1 | A204 |  |  |  |  | GI50 | 129 nM |
| O=C(Nc1ccccc1O)c1ccc(S(=O)(=O)c2ccc(Cl)cc2)cc1 | Plasmodium falciparum | whole cell extended time | 3D7 | 72 h |  | IC50 | 1350 nM |
| Cl.Nc1nccc(-c2c(-c3ccc(F)cc3)ncn2C2CCNCC2)n1 | CSNK1E | kinase activity, inhibitor |  | 0.5 µM |  | inhibition | 99% |
| O=S(=O)(O)O | anion exchanger, human | substrate | neutrophils |  |  | Km | > 95 mM |
| [Ca] | KCa2 channels | ion current, activator |  |  |  | EC50 | ~600 nM |
| Cc1ccc(C)c(OCCCC(C)(C)C(=O)O)c1 | UGT2B7 | O-glucuronidation, substrate |  |  |  | Vmax | 510 pmol/min/mg protein |
| C[S+]([O-])c1ccc(-c2nc(-c3ccc(F)cc3)c(-c3ccncc3)[nH]2)cc1 (stereo not drawn) | CSNK1G1 | kinase activity, inhibitor |  | 0.5 µM |  | inhibition | 4% |
| COc1ccccc1Oc1cccc(CN2CCC(O)(c3ccccc3C(=O)O)CC2)c1 | human CCR8 F112A mutant (TM3) | IP accumulation, agonist |  |  |  | EC50 | 51 nM |
| CC(C)(C)n1nc(Cc2cccc3ccccc23)c2c(N)ncnc21 | CSNK1G1 | kinase activity, inhibitor |  | 0.5 µM |  | inhibition | 7% |
| C=CCCC(=O)O | HDAC | enzyme activity, inhibitor |  | day 4, unbound medium concentration |  | EC10 | 935 µM |
| N=C(N)c1ccc2[nH]c(-c3cccc(C4(O)CCCCC4)n3)cc2c1 | hepsin | inhibitor |  |  |  | inhibitory potency | 100 nM |
| CC(C)Oc1ccc(-c2c[nH]cc2CN(C)CCN)cc1 | PRMT8 | enzyme activity, inhibitor |  |  | relative to: PRMT1 IC50 over PRMT8 IC50 | selectivity ratio | 6 fold |
| COc1ccc(CCc2ccc(-c3c(C)[nH]c(C)c(Cl)c3=O)cc2)cc1 | Plasmodium falciparum | whole cell extended time | 3D7 | 72 h |  | IC50 | 20 nM |
| Cn1c(=O)oc2ccc(-c3ccc(C[C@@H](C#N)NC(=O)[C@@H]4CNCCCO4)cc3)cc21 | neutrophil elastase human |  | bronchiectasis patients, sputum | dose not given |  | inhibition | ~90% |
| CNC(C)C1CCC(N)C(OC2C(N)CC(N)C(OC3OCC(C)(O)C(NC)C3O)C2O)O1 (stereo not drawn) | Klebsiella pneumoniae |  | clinical isolate RKI-No_19/16 |  |  | MIC | > 8 mg/L |
| CCNS(=O)(=O)c1ccc(OC)cc1C1(O)CCN(Cc2cccc(Oc3ccccc3OC)c2)CC1 | human CCR8 F123A mutant (TM3) | IP accumulation, agonist |  |  |  | EC50 | 12 nM |
| CCCC(C)C(=O)O (stereo not drawn) | histone deacetylase | enzyme activity, inhibitor | mouse embryonic stem cells | unbound medium concentration |  | EC10 | 1030 µM |
| COc1ccccc1Oc1cccc(CN2CCC3(CC2)C(=O)NCN3CCc2ccccc2)c1 | human CCR8 S289A mutant (TM7) | IP accumulation, agonist |  |  |  | EC50 | 16 nM |
| CCCCC(C)C(=O)O (stereo not drawn) | HDAC | enzyme activity, inhibitor |  | day 10, unbound medium concentration |  | EC10 | 2300 µM |
| CCN(CC)CCCCNc1ncc2cc(-c3cc(OC)cc(OC)c3)c(NC(=O)NC(C)(C)C)nc2n1 | c-Src | inhibitor |  |  |  | IC50 | 19800 nM |
| Fc1ccc(-c2nc3n(c2-c2ccncc2)CCS3)cc1 | CSNK1D | kinase activity, inhibitor |  | concentration not given |  | inhibition | 97% |

For quick reference, copied from above:
| Structure (SMILES) | target or system | test | test system | setting | scale | quantity | value |
| --- | --- | --- | --- | --- | --- | --- | --- |
| CCC(CC)C(=O)O | histone deacetylase | enzyme activity, inhibitor | mouse embryonic stem cells | unbound medium concentration |  | EC10 | 931 µM |
| CCCC(C)C(=O)O (stereo not drawn) | histone deacetylase | enzyme activity, inhibitor | mouse embryonic stem cells | unbound medium concentration |  | EC10 | 1030 µM |
| Cn1c(=O)oc2ccc(-c3ccc(C[C@@H](C#N)NC(=O)[C@@H]4CNCCCO4)cc3)cc21 | neutrophil elastase human |  | bronchiectasis patients, sputum | dose not given |  | inhibition | ~90% |
| CCCCCCCCCCCCC/C=C/[C@@H](O)[C@H](CO)NC(=O)CCCCCNc1ccc([N+](=O)[O-])c2nonc12 | inositol phosphorylceramide synthase, membrane-bound |  |  | with: ceramide substrate |  | Km | 0.003 mM |
| C=C1C(=O)O[C@@H]2C[C@@]3(C)CCCC(=C)[C@@H]3C[C@H]12 | NR4A1 (Nur77) | inverse agonist or antagonist |  |  |  | active concentration | 21.5 µM |
| CCCCC(C)C(=O)O (stereo not drawn) | HDAC | enzyme activity, inhibitor |  | day 10, unbound medium concentration |  | EC10 | 2300 µM |
| O=C(Nc1ccccc1O)c1ccc(S(=O)(=O)c2ccc(Cl)cc2)cc1 | Plasmodium falciparum | whole cell extended time | 3D7 | 72 h |  | IC50 | 1350 nM |
| O=C1NC(=O)c2c1c1c3ccccc3[nH]c1n1cncc21 | CSNK1D | kinase activity, inhibitor |  | concentration not given |  | inhibition | 85% |
